Published values from different studies.
Numbered parts are unrelated; each lists some results of a single study. Positions count from the first letter of the parent shown.

Study 1
Target: RING finger protein unkempt homolog, zinc fingers 1-6, GST-SBP tag (UNK, Homo sapiens, UniProt Q9C0B0, residues 30-357)
Method: RNA Bind-n-Seq
Molecule type: RNA
Matrix: in vitro
Concentration: not given
Notes: RNA with constant flanks, human and mouse sites, ends assumed
Baseline: input RNA pool
Direction: higher = stronger binding
Measurement: bound/input enrichment
All sequences stand within: GGGAGUUCUACAGUCCGACGAUC … CAACAGAGGAUUGAGCAUCA
Target sequence (chain): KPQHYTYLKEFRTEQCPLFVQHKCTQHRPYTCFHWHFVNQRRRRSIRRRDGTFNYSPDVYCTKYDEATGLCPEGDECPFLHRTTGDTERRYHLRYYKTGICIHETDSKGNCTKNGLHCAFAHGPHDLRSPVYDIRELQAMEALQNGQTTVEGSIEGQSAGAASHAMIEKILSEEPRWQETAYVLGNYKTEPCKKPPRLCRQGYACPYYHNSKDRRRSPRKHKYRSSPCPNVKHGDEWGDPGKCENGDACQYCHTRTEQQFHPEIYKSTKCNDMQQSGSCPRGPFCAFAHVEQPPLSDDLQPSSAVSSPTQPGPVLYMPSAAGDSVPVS
CUGCUCCUCUCCUGGGCGGCGGGGAUGGGAGGUCAGUAUGGGAAUCCUUUAAAUAAAUAUAUCAGACAUUAUGAAGGAUUAUCUUACAAUGUGGAUUCAUUACACCAAAAACACCAGCGU: 0.231 ratio
GAGGAGGACUCUGACGACGACGAAGCGCUCAGCCCACCAAAACGAGGAAGACCCCAAGUUAGAUUGCCAAUUAAAACAAAAGGGAGAUUUGGCCCUUCUUUCCCAAGUCGCAGCCAACGA: 4.51 ratio
AAGGGAGAUUAUUUCCGGUAUCUUGCUGAAGUAGCUUGUGGCGAUGAUCGAAAACAAACAAUAGAAAAUUCCCAAGGAGCCUACCAAGAGGCGUUUGAUAUAAGCAAGAAGGAGAUGCAG: 0.556 ratio
CAUGAUGUGCGAGGUGAUGCCUACCAUCAGCGAGGAUGGCCGGCGGGGCUCGGCGCUGGGCCCGGACGAGGCCGGCGGCGAGCUGGAGCGCCUCAUGGUCACGAUGCUCACAGAGCGCGA: 0.059 ratio
AAGUGCCAUGAGAAAAUUUGCAUACUGCAAGGUGGUCCUAGCCACCUCCUUGAUUUGGGUACUCUUGGAUAUGUUCCUGCUGCUUUACUUCAGUGAAUGCAACAAAUGUGAUGAAAAAAA: 0.172 ratio
ACGACAUUGCGACAGCGCAGAAAGCCAGUGUUCCACCUGUCCCACGAGGAGCGUGUCCAACAUAGGAACAUUAAAGACCUUAAGCUGGCCUUCAGCGAGUUCUACCUCAGUCUCAUCCUG: 0.125 ratio
AACAAAGAUUAUCACAAGGAUGUUCGUAAUAACUUUUUGCCACCAAUUAUUGCACGUUUCAUUAGAGUGAACCCUGUCCAGUGGCAACAGAAAAUUGCCAUGAAAGUGGAACUGCUCGGA: 0.183 ratio
GAGCCAGAGGAAGAAGAAGAGGAGAAGGAAGGGAAUGCCACUGUGAGUUUCUCACAGGCCCUAGUAGAGUUCACCAGCAAUGGAAACCUUUUUACCAGCAUGUCCUACAGCUCUGAUUCU: 0.216 ratio
UAUGAUUUGGUUGCAGGAAGCAAUUGCCUAAAAAGCAGUUAUGUCCUCAGCAAAUCAAGAGCCCUUGAACAUUUCCCAAUGCUCCAGAAGGACAAACUGGUAGGAGCAAUUGUCUACUAU: 0.102 ratio
AUGGCUCGCCUGGUGCUCGGUCUGGUGAGCUGCACCUUCUUUCUAGCAGUCAGCGGUCUGUAUUCUUCUAGUGAUGAUGUCAUCGAGUUGACGCCAUCAAAUUUCAACAGAGAAGUUAUU: 0.281 ratio
CAAUUGCCUAUACUUGGUUCAACCUGCAGGCUCGAAAACGCAAGUACUUUAAAAAGCAUGAGAAACGAAUGUCGAAGGAUGAAGAAAGGGCAGUCAAAGACGAGCUGCUCAGUGAGAAGC: 0.2 ratio

Study 2
Target: CCNB1, cyclin fold, Cln2 fusion (human)
Method: yeast growth competition, sequencing
Matrix: yeast
Notes: weak parent motif
Baseline: not given
Direction: higher = stronger binding
Measurement: normalised enrichment score
Starting sequence: SCAPER docking peptide (human); SNARRSLNFGGST
SNARRSLNFSGST [G10S]: 0.149
SNARRSLNWGGST [F9W]: 0.904
SNARRSANFGGST [L7A]: 1.11
NNARRSLNFGGST [S1N]: 0.451
SNARTSLNFGGST [R5T]: 0.252
SNYRRSLNFGGST [A3Y]: 0.335
SNARRSLNHGGST [F9H]: 0.592
SNARRSLNFNGST [G10N]: 0.27
SNARRSLNIGGST [F9I]: 0.491
SNARDSLNFGGST [R5D]: 0.178
SNARRSLNFTGST [G10T]: 0.298
SNARRSLNFLGST [G10L]: 0.188
SNAYRSLNFGGST [R4Y]: 0.53
SNARCSLNFGGST [R5C]: 0.126
SNARRCLNFGGST [S6C]: 0.637
SNARLSLNFGGST [R5L]: 0.195
SNARRSLNFPGST [G10P]: 0.652
SNARRSLNFGGSM [T13M]: 0.62
SNARRSLNFCGST [G10C]: 0.308
SNARRSLNFGGHT [S12H]: 0.627
SNTRRSLNFGGST [A3T]: 0.851
SNAHRSLNFGGST [R4H]: 0.21
SSARRSLNFGGST [N2S]: 0.723
SNARRQLNFGGST [S6Q]: 0.447
SNARRSLNFGGSE [T13E]: 0.731

Study 3
Target: ABI1, truncated, D143A, DHFR fusion (Arabidopsis thaliana)
Method: DHFR PCA, deep sequencing
Matrix: yeast
Notes: methotrexate growth selection, single substitutions
Added: (+)-ABA 710 µM
Baseline: wild-type fitted maximum
Direction: higher = stronger binding
Measurement: relative binding score
Starting sequence: PYL1, truncated, DHFR fusion (Arabidopsis thaliana); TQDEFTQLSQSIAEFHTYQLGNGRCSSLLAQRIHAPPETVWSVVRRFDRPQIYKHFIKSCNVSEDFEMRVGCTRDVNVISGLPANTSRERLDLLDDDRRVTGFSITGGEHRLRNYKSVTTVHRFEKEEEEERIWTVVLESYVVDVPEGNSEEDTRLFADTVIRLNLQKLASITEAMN; partner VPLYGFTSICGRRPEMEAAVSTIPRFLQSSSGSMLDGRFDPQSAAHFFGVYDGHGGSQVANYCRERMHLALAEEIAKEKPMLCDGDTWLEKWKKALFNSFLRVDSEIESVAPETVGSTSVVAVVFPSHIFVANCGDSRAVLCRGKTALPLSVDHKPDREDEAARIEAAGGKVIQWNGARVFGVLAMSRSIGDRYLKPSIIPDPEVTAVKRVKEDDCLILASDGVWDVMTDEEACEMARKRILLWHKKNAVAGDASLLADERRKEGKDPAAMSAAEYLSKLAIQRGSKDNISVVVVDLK
V76N: 79.1%
L28S: 75.6%
T135Q: 1.68%
V100D: -4.4%
R88D: 82.4%
E131P: 110%
T160G: 84.6%
Q31K: 102%
E128L: 103%
T39Y: 95.5%

Study 4
Target: RNA binding protein fox-1 homolog 2, RRM domain, GST-SBP tag (RBFOX2, Homo sapiens, UniProt O43251-10, residues 100-194)
Method: RNA Bind-n-Seq
Molecule type: RNA
Matrix: in vitro
Concentration: 365 nM
Notes: natural RNA segment, single round, ends assumed
Baseline: no-protein control
Direction: higher = stronger binding
Measurement: RBNS enrichment (R)
All sequences stand within: GGGAGUUCUACAGUCCGACGAUC … UGGAAUUCUCGGGUGCCAA
Construct (chain): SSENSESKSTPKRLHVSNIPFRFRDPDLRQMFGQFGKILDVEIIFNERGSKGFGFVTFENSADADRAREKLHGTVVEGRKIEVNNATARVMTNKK
AAAAGAACAUGUCUUUGGGUUCAUGUGUGGUGCUGCUGCCCGGGUGUAAACUAUCCCCACCCAGGGCCAGCCAUUAUCACCAGACCUCUUCUGGGCCUGGCUGUGAAGCC: 0.266
UCAGGGCGGCCCCGUGCAGGAGCACCAGCUCACCCUCAGGCAUCUCGGACUGGAGGGCCAGCAGAAGGUCAGCAACUUACUCUUAAAACGAUUGUUUCGGAUCAUAUUGA: 0.276
CUACACAGGGUCUGGUUUUAAAAGUAGAGGGAAACCUCUCCUCCCCUGGUCUUUGUAGCCAUCUUUGUCCUCUGAAAUGAGGAACCGAUCCUCUUUAAAGUUCCCAAAUA: 0.21
UGGGCUCAAAAAAAGAAAGCCGCCAAAGACUCUUAUCCUUAUUGGUGCCCCAUCAUUGGCCACCCCAGCCAUAGGUGUGUGCUGUUGGUGGGAAAUGGUCUCCUUCCUCA: 0.278
GCAAAGGAUAAUGUCACCUCAGGACCAAGGUGGAAACUUACAGCUGAAUCCAGGGCUUACUAAGUAGGGAAGUCAGUUUACAUAUUUCAGUUUUCCUCUGAUGUUUUUGA: 0.456
CCAAAGACCCUCCAUCACGAAGAGCACUUUACAGAUAAGAAUCUUCCUCCCCAGUUCUUCAUGCCUCCUUCCUGCCCUUUCCUUACUUUGUGUUGGAUUUGUUUUCCAAA: 1.17
UUCUGUAUUGGUCUCUAGGUGUAGCCUUUACUUCCUUUACUGUUGGCGUGUUAUGCUCCCAGUUCCCCUAUAGAGUCGUCUACACUUCCUCCCUGUGCUCUUCACUGGCC: 0.555
UCUUUCUCCCCAGCCUUCUCAUUUCCGCCUCUCCAGACACUGCGCCCUCCACCCUCACUCUGCCAUUGUUCCACCUCCUGACCUGCUCCAUCUGAGCUCUCCAGCUGGCC: 1.21
AUUUUUGUUUCUAAAGUGAUUUGUGAUUUGUGCUGUAUAAACUGUAUAAAAGGUUCUGUUUUUAAAGGUGGAUUUUCAUUCCUCUGGGGACAGUGGUCGCCAAGACAUCU: 0.287
AAGUCUUUUAUUUGUGGCAAUUUUGCCUUAGUAGGCGCUUGGCGUAGUUUCUAUUUUAUAGAAUAUUUAGUCUGAGAAGUUAAAGAAACUAGACCUAGGAUCUCAAAAGU: 0.4
GGGGCUGGGGGGAUCCCAGCAGGGGGAGGGCAAUCCCUUCACCCCAGUUGCCAAACAGACCCCCCACCCCCUGGAUUUUCCUUCUCCCUCCAUCCCUUGACGGUUCUGGC: 0.21
GGAGCCCGAUAAAGACUUUGCCUGGAUCUCCUAGGGGCUCUGCUCUAGUGGGCAGGGUGAGUGAUGGCUGAAUCGCUUUGUCCACCUGUGUGUGUGUCUUAGUGGAUCUU: 0.54

Study 5
Target: Ras GTPase-activating protein-binding protein 1, C-terminal RGG region (G3BP1, Homo sapiens, UniProt Q13283)
Chain of UniProt Q13283 (whole entry, looked up): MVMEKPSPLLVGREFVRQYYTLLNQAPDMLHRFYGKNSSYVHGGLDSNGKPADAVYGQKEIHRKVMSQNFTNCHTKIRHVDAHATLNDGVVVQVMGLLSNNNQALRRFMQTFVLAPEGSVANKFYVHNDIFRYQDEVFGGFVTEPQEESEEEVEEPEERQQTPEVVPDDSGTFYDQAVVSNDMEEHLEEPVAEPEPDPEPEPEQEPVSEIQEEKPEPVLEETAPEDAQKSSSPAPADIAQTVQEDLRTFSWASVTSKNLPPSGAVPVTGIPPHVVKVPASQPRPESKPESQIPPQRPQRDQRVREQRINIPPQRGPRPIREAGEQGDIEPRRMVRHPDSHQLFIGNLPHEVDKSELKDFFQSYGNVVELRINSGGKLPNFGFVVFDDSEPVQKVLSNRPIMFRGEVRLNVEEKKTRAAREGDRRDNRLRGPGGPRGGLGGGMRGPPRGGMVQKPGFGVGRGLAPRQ
Method: RNA Bind-n-Seq
Molecule type: RNA
Matrix: in vitro
Concentration: 1 µM
Notes: whole 134-nt RNA, ends assumed
Added: 150 mM KCl
Baseline: input library
Direction: higher = stronger binding
Measurement: log2 enrichment
All sequences stand within: GGGAGUUCUACAGUCCGACGAUC … UGGAAUUCUCGGGUGUCAAGG
GAAAUCCACAGGAAAGUGAUGUCACAAAACUUCACCAACUGCCACACCAAGAUUCGCCAUGUUGAUGCUCAUGCCACGCUAAAUGAUGGU: -0.0742
UAACUUUAGAGGAGGAUCUGAUGGGUAUGGCAGUGGACGUGGAUUUGGGGAUGGCUAUAAUGGGUAUGGAGGAGGACCUGGAGGUGGCAA: 1.32
CACCGACAACACGCACCCACACAGACACAGAGGGAAGGGGUUGGGAUGGGGACAGGGUGCACAGCAGGGCGGGGUAGGACCCCAGCCCCU: 0.0275
ACCAUGCAGGUGGGCAUCUUUGGGAAGUGGGGCAAGGGGGGGAUAGGGAGGGGGGUACCACUUUGGGAACAGGUGGUCCCAGGUCGUUUC: 2.52
UGUACAAACACUUUCCCAUCCCCCUCAUUAACCGGCUGGAGAAGCACUAUCUGGAUAUCAACACGGUGCUGGAGAAAUGGCAGAAGAGCA: -0.916
UGUGCUACACAUCGUAUGUACCGAAUCGGGGUUUUUUUGGGGAAAAAAAGGGGUUUUUGGGGAAAGUAUUAUGUUACGCCGUUCGGAUCU: 0.174
UCUCUUAUGCUAUUGGAGUUUCUCAUCCAUUAUCUAUCUCCAUUUUCCAUUAUGGUACCUCUCAGAAGAGUGAGAGAGAGCUAUUAGAGA: -1.51
UUCUCUCUCUCCCUUUGCAGCCGCUGUACAACCAGCCCUCCGACACCCGGCAGUAUCAUGAGAACAUCAAAAUGUGAGUGCUCGCGGGCA: -0.0944
CACAGACAACACGCACCCACACAGACACAGAGGGAAGGGGUUGGGAUGGGGACAGGGUGCACAGCAGGGCGGUGUAGGACCCCAGCCCCU: -0.717
GGGCCCUGGUGGCAUGCGGGGAGGAAGAGGUGGCCUCAUGGAUCGUGGUGGUCCCGGUGGAAUGUUCAGAGGUGGCCGUGGUGGAGACAG: 2.14
UAACUUUAGCGGAGGAUCUGAUGGAUAUGGCAGUGGACGUGGAUUUGGGGAUGGCUAUAAUGGGUAUGGAGGAGGACCUGGAGGUGGCAA: -1.47
GCAGGAAGUAAAAACAAAUGGAAAUGCUUCGGAUGGUGGCAGGGGUGGGGGUUGCUAAGGAAAGGGUGGGAUGGGAGUGGGUAAAGAGUU: 1.79
UCAGCAACCACCUCAACUCAUUGACUCCGCCAACAUCCGUCAGGAGGAUGCCUUUGAUAACAACAGUGACAUUGCUGAAGAUGGUGGCCA: -1.75
CCUGUGCUACACAUCGUAUGUACCGAAUCGGGGUUUUUUGGGUUUUUUGGGUUUUUUGGGGAAAGUAUUAUGUUACGCCGUUCGGAUCUG: -1.13

Single results of other studies
PhoQ, residues 284 288 289 292 302 303 ASSHFY — fold induction (PhoP, residues 12 14 15 18 19 NQFFI (Escherichia coli, UniProt P23836); Sort-seq, item: YFP reporter; E. coli; PhoQ-PhoP variant library, added: 10 µM Mg2+; baseline: high Mg2+ state, higher = stronger signaling): 3.59
